Assay results pooled from the literature.
± marks the error that the study gave.
CDK4: Cyclin-dependent kinase 4 (CDK4, Homo sapiens, UniProt P11802)
UniProt P11802, sequence (whole entry, looked up): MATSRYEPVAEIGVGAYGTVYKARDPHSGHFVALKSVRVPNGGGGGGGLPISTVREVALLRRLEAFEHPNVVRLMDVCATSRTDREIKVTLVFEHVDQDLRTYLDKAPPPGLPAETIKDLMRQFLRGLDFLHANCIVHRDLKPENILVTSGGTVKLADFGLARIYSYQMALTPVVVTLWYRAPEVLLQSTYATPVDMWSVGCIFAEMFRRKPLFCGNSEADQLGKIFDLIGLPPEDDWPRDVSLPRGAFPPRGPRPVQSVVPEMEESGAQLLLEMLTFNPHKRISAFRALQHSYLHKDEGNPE
Gria2: Glutamate receptor 2 (Gria2, Rattus norvegicus, UniProt P19491)
UniProt P19491, sequence (whole entry, looked up): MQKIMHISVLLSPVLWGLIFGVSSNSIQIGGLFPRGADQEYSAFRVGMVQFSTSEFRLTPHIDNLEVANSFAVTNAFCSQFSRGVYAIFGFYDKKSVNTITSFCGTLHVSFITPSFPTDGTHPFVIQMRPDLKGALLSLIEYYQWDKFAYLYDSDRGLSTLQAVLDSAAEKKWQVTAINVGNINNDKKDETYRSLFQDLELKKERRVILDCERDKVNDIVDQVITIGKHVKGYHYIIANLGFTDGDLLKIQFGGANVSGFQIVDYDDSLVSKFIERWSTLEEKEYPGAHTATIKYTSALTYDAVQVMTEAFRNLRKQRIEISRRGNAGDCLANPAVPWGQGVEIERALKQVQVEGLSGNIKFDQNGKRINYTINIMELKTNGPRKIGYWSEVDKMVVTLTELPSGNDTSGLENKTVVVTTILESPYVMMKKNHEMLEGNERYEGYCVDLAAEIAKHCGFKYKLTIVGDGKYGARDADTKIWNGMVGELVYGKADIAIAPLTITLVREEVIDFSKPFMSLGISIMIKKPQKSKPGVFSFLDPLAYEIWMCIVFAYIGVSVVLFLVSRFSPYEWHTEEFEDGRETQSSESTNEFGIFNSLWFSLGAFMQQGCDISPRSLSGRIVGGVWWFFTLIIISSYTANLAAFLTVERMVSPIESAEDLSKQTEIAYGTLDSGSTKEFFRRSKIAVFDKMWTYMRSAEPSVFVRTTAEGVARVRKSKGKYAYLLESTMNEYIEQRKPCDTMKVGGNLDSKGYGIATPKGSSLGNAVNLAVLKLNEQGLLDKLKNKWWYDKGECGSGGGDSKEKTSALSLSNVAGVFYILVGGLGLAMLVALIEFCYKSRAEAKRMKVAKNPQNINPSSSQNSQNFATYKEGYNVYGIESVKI
VKORC1: Vitamin K epoxide reductase complex subunit 1 (VKORC1, Homo sapiens, UniProt Q9BQB6)
UniProt Q9BQB6, sequence (whole entry, looked up): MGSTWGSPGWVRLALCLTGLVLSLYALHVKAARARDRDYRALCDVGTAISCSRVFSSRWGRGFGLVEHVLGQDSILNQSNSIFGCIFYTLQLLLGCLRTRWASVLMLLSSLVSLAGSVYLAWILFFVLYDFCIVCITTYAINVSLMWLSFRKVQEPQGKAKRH
MARS2: Methionine--tRNA ligase, mitochondrial (MARS2, Homo sapiens, UniProt Q96GW9)
UniProt Q96GW9, sequence (whole entry, looked up): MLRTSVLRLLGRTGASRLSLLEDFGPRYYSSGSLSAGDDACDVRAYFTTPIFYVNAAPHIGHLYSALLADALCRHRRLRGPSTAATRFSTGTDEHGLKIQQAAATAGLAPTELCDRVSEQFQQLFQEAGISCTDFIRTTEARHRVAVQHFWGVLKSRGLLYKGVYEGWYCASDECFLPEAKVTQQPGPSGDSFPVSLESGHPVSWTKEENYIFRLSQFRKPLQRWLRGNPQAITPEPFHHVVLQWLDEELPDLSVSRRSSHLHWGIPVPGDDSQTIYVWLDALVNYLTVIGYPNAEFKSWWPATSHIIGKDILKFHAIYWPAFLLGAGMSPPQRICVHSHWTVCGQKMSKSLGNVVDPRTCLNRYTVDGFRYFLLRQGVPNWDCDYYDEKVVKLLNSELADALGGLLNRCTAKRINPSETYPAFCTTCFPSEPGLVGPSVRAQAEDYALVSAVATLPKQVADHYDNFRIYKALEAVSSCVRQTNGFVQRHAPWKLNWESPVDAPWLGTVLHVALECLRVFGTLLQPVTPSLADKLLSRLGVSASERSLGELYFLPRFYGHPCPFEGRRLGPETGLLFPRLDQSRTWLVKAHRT
HDAC11: Histone deacetylase 11 (HDAC11, Homo sapiens, UniProt Q96DB2)
UniProt Q96DB2, sequence (whole entry, looked up): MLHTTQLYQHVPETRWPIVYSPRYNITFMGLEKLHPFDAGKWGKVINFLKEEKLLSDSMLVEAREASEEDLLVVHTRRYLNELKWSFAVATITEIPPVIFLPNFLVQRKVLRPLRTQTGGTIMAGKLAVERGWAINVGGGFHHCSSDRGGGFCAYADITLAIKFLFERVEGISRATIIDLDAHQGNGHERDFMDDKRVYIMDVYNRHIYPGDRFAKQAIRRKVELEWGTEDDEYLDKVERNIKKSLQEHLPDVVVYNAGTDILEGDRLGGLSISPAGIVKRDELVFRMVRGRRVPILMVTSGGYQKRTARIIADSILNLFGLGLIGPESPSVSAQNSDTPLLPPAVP
DDR2: Discoidin domain-containing receptor 2 (DDR2, Homo sapiens, UniProt Q16832)
UniProt Q16832, sequence (whole entry, looked up): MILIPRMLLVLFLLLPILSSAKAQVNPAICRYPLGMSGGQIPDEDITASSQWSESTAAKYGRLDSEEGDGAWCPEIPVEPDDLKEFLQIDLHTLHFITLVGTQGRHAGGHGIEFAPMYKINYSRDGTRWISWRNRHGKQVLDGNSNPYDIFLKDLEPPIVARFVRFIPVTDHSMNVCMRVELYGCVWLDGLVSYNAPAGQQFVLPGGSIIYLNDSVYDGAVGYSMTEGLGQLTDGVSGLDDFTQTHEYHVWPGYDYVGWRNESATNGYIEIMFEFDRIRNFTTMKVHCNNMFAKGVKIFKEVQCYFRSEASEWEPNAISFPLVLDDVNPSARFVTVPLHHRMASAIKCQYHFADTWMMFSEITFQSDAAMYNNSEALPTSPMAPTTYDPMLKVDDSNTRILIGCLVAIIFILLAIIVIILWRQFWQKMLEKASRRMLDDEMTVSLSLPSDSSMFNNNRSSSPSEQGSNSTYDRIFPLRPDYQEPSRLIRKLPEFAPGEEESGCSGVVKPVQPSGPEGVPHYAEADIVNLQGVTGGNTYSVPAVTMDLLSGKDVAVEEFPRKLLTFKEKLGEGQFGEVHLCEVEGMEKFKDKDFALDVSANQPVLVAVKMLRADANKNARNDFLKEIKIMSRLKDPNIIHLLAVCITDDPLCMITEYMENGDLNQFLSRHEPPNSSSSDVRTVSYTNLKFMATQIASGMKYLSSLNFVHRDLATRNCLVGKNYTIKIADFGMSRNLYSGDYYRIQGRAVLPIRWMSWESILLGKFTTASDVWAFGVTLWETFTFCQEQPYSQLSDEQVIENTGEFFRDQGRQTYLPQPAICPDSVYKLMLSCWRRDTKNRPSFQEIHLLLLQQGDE
UniProt Q9NRM7, sequence (whole entry, looked up): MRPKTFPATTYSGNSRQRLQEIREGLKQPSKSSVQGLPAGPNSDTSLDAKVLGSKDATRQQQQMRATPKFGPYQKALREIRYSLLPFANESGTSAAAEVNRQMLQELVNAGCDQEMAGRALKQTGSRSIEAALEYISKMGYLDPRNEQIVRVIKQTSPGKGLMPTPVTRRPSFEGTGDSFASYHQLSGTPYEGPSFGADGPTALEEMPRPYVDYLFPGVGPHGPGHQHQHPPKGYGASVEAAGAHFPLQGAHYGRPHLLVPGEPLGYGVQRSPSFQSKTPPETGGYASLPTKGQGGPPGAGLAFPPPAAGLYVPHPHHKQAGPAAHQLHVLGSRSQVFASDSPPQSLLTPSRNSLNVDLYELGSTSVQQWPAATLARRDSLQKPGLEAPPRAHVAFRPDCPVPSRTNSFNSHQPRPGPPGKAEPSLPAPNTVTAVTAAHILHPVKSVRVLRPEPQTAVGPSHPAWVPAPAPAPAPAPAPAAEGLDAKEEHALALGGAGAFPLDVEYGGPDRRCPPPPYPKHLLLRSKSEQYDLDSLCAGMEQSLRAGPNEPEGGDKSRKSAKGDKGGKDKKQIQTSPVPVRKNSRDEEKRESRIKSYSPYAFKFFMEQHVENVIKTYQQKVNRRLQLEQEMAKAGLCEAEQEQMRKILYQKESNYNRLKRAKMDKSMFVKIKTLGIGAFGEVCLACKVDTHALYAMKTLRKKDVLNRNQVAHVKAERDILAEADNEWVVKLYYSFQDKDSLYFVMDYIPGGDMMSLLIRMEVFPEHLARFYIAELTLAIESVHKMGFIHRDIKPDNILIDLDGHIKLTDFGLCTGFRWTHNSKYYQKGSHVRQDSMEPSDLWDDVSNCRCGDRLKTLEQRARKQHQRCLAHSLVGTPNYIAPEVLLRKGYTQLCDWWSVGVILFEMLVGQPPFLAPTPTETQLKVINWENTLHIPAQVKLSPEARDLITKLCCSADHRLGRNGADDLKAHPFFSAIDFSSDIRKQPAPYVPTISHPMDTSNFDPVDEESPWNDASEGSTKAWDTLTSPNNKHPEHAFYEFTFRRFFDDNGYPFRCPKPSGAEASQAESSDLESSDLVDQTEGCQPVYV
UniProt P21397, sequence (whole entry, looked up): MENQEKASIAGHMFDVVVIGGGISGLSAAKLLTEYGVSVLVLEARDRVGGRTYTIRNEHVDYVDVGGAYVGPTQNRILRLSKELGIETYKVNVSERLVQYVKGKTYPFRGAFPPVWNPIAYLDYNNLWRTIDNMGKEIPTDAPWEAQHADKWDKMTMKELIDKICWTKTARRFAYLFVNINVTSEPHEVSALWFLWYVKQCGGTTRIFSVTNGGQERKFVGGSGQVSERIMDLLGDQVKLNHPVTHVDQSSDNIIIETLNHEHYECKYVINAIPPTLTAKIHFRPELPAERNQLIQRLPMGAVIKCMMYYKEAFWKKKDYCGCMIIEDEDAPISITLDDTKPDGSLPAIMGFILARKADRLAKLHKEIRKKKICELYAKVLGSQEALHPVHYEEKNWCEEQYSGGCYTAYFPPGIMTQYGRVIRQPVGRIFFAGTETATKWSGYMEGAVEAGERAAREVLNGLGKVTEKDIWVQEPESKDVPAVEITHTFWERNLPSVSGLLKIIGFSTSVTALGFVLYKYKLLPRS
UniProt P09936, sequence (whole entry, looked up): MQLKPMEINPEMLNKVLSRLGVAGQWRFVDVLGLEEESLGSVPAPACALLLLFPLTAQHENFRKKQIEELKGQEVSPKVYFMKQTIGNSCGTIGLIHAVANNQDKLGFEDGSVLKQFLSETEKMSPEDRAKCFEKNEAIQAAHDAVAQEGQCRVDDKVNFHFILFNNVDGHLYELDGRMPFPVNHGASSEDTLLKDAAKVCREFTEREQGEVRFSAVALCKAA

| SMILES | target | test | system | setting | scale | IC50 |
| --- | --- | --- | --- | --- | --- | --- |
| Cc1nc2c(F)cc(-c3nc(Nc4ccc(NC(=O)CCCC(=O)NO)cc4)ncc3F)cc2n1C(C)C | CDK4 |  |  |  |  | 1.6 nM |
| O=C(O)Cc1cc2c(cc1C(=O)c1ccccc1)OCO2 | Gria2 | ion current, patch clamp |  |  |  | 5360 nM |
| CC(C)(COP(=O)(O)OP(=O)(O)OC[C@H]1O[C@@H](n2cnc3c(N)ncnc32)[C@H](O)[C@@H]1OP(=O)(O)O)[C@@H](O)C(=O)NCCC(=O)NCCSCCC(=O)N[C@@H](CO)C(=O)NCC(=O)N[C@@H](CCCNC(=N)N)C(=O)NCC(=O)N[C@@H](CCCCN)C(=O)NCCCC[C@H](NC(=O)CC[C@@H]1NC(=O)[C@@H](CCCNC(=N)N)NC(=O)[C@H](CCCNC(=N)N)NC(=O)[C@@H](CCCNC(=N)N)NC(=O)[C@H](CCCNC(=N)N)NC(=O)[C@H](Cc2csc3ccccc23)NC(=O)[C@@H](Cc2ccccc2)NC(=O)[C@H](Cc2ccccc2)NC1=O)C(N)=O | NAA40 (Homo sapiens, UniProt Q86UY6) | enzyme activity, inhibitor, fluorescence |  |  |  | 46 nM |
| O=C(Cc1ccc(OCc2ccccc2)cc1)NC1(C(=O)O)CCN(C(=O)c2ccc(-c3cccc(Cl)c3)cc2)CC1 | CNR2 (Homo sapiens, UniProt P34972) | antagonist, GloSensor cAMP |  |  |  | > 10000 nM |
| CC1CC(C)CN(C(=O)Cn2ncc3cccn3c2=O)C1 (stereo not shown) | VKORC1 | carboxylation, inhibitor, cell-based |  |  |  | 5500 nM |
| Nc1ncc2c(n1)-c1c([nH]c3ccc(C4=CCOCC4)cc13)CCC2 | DYRK1A (Homo sapiens, UniProt Q13627) | target engagement in cells, BRET |  |  |  | > 10000 nM |
| CCOc1cc(CN2CCC3(CC2)CN(c2ccc(C(=O)O)cc2)C(=O)N3)c(C2CC2)cc1C | SSTR5 (Homo sapiens, UniProt P35346, N100V) | cAMP level, agonist, GloSensor | AD293 | N100V mutant, added: CST17 EC80 and forskolin |  | 24 nM |
| CC(=O)OC1CCC2(C)C(CCC3(C)C2CC=C2C4C(C)C(C)CCC4(C(=O)O)CCC23C)C1(C)C (stereo not shown) | UGT1A7 (Homo sapiens, UniProt Q9HAW7) | enzyme activity, inhibitor |  |  |  | > 100000 nM |
| Cc1nc2c(F)cc(-c3nc(Nc4ccc(CC(=O)NCCCCCCCC(=O)NO)cc4)ncc3F)cc2n1C(C)C | CDK4 |  |  |  |  | 1.7 nM |
| C=CC(=O)N1C[C@H](C)N(c2nc(OC[C@@]34CCCN3C[C@H](F)C4)nc3c(F)c(-c4ccc(F)c5sc(N)c(C#N)c45)c(C(F)(F)F)cc23)C[C@H]1C | GTPase KRas, GppNHp; with RAF1 RBD (KRAS, Homo sapiens, UniProt P01116, Q61H) |  |  |  |  | 3100 ± 830 nM |
| FC(F)(CNCc1cc(Cl)cc(Cl)c1)CNc1nc2cccnc2[nH]1 | MARS2 | enzyme activity, inhibitor |  |  |  | 269 nM |
| Cc1c(OS(=O)(=O)Oc2ccc(C(C)C)cc2)cccc1C(=O)NO | HDAC11 |  |  |  |  | 321 nM |
| NCC1CCN(c2nc(-c3ccncc3)nc3c(C#CCO)cccc23)CC1 | LATS2 (Homo sapiens, UniProt Q9NRM7) | enzyme activity, inhibitor, radiometric |  |  |  | 7 nM |
| N#CN1CC[C@H](C(=O)Nc2nc3c(s2)CN(C(=O)Cn2cc(COCCOCCOCCOCCNC(=O)CCCC[C@@H]4SC[C@@H]5NC(=O)N[C@@H]54)nn2)CC3)C1 | UCHL1 (Homo sapiens, UniProt P09936) | enzyme activity, inhibitor, fluorescence |  | with preincubation |  | 640 nM |
| O=C(O)Cc1cc2c(cc1C(=O)c1ccccc1Cl)OCO2 | Gria2 | ion current, patch clamp |  |  |  | 4110 nM |
| O=C(Nc1ccc(C(=O)Nc2ccc3c(O)cc(S(=O)(=O)O)cc3c2)cc1)c1ccccc1 | Trex1 (Mus musculus, UniProt Q91XB0) | enzyme activity, inhibitor |  |  |  | 30300 nM |

| SMILES | target | test | system | setting | scale | IC50 |
| --- | --- | --- | --- | --- | --- | --- |
| COC(=O)CCCCCCC(=O)Nc1ccc(Nc2ncc(F)c(-c3cc(F)c4nc(C)n(C(C)C)c4c3)n2)nc1 | CDK4 |  |  |  |  | 2.9 nM |
| CC(C(=O)N1CCCC1c1cc2nc3c(c(O)n2n1)CCCC3)n1cncn1 (stereo not shown) | VKORC1 | carboxylation, inhibitor, cell-based |  |  |  | 19300 nM |
| CC(C)(C)n1ncc2c(=O)n(Cc3cccc(F)c3)c(NCc3ccc(F)cn3)nc21 | Cytochrome P450 3A4 (CYP3A4, Homo sapiens, UniProt P08684) | inhibitor |  |  |  | 17100 nM |
| Fc1ccc2[nH]c(NCCCNCc3cc(Cl)cc(Cl)c3)nc2c1 | MARS2 | enzyme activity, inhibitor |  |  |  | 635 nM |
| Cc1nn(-c2cccc(N)c2)c(=O)c2cnc(Nc3ccc(N4CCNCC4)cc3)nc12 | EPHA4 (Homo sapiens, UniProt P54764) | enzyme activity, inhibitor |  |  |  | 1580 nM |
| Cc1nc2c(F)cc(-c3nc(Nc4ccc(CC(=O)NCCCC(=O)NO)cc4)ncc3F)cc2n1C(C)C | CDK4 |  |  |  |  | 1.2 nM |
| CC1(C)C(=O)N=C2C1=C(O)C(=O)c1ccccc12 | PRMT1 (Homo sapiens, UniProt Q99873) | enzyme activity, inhibitor |  |  |  | > 100000 nM |
| CC(C)C[C@H](NC(=O)[C@@H](CCCCNC(=O)[C@@H](Cc1ccccc1)NC(=O)CCCCCCCNC(=O)CN1CCN(CC(=O)O)CCN(CC(=O)O)CCN(CC(=O)O)CC1)NC(=O)[C@H](Cc1ccc(O)cc1)NC(=O)[C@H](CO)NC(=O)[C@H](Cc1c[nH]c2ccccc12)NC(=O)[C@H](Cc1c[nH]cn1)NC(=O)[C@@H]1CCC(=O)N1)C(=O)N[C@@H](CCCNC(=N)N)C(=O)N1CCC[C@H]1C(=O)NCC(N)=O | GNRHR (Homo sapiens, UniProt P30968) | ligand displacement, radioligand |  | pH 7.4, cell membranes |  | 6.6 nM |
| CCOc1ccc(C(=O)/C=C/c2ccc(C(C)C)cc2)cc1 | MAOA (Homo sapiens, UniProt P21397) | enzyme activity, inhibitor |  |  |  | 7000 nM |
| COc1ccc(-c2cc(OCC(=O)N(C)Cc3cccnc3C)nc(-n3nc(C)cc3C)n2)cc1 | LNPEP (Homo sapiens, UniProt Q9UIQ6) | inhibitor, HPLC |  | first phase of biphasic curve | partial inhibition | 100 nM |
| C=CC[C@@H]1NC(=O)CCSCc2ccc(cc2)CSCCCNC(=O)[C@H](CCCCCC(=O)N(O)CCCCCC)NC1=O | HDAC11 | enzyme activity, inhibitor, fluorescence |  |  |  | 560 nM |
| O=C(CN1CN(c2ccccc2)C2(CCN(C(=O)c3cc4cn[nH]c4cn3)CC2)C1=O)NCC(F)(F)F | DDR2 | ligand displacement |  |  |  | 14700 nM |
| O=C(Nc1cccc(CN2CCc3nc[nH]c3C2)c1)c1cc(-c2ccccc2)n(-c2ccccc2)n1 | Genome polyprotein, NS2B-NS3 protease (dengue virus type 2, UniProt P29990) | enzyme activity |  | added: AMC substrate 50 µM |  | 23000 nM |
| COC(=O)CCCCCCNC(=O)Cc1ccc(Nc2ncc(F)c(-c3cc(F)c4nc(C)n(C(C)C)c4c3)n2)cc1 | CDK4 |  |  |  |  | 2 nM |
| N#Cc1cccc(N2CN(CC(=O)NCC(F)(F)F)C(=O)C23CCN(C(=O)c2cnc4[nH]ncc4c2)CC3)c1 | DDR2 | ligand displacement |  |  |  | 56900 nM |
